Experimental data from different studies.
Compare with care: the assays were run in different laboratories. Numbers after ± are the reported error.

O=C(O)CC[C@H](NC(=O)N[C@@H](CCC(=O)NCCCCCNC(=O)CN1CCNCCN(Cc2cccc(C(=O)[O-])n2)CC1)C(=O)[O-])C(=O)O.[64Cu+2] — logD (shake-flask; 1-octanol/PBS; pH 7.4): -1.66 ± 0.26
CN1C(=O)C2(Nc3ccccc3C(=O)N2Cc2ccccc2)c2cc(Br)ccc21 (stereo not drawn) — logD (octanol/water; pH 7.4): 3.8 ± 0.2
O=C(c1ccc(C23CC(S(F)(F)(F)(F)F)(CO2)C3)cc1)N1CCN(c2ncccn2)CC1 — logD (pH 7.4): 3.3
CCCC[P+](CCCC)(CCCC)CCCC.Cc1ccc(S(=O)(=O)[N-]C(=O)NN2CC3CCCC3C2)cc1 (stereo not drawn) — logD (shake-flask; n-octanol/PBS; pH 7.4, 37 °C): 0.25 ± 0.02
C[C@H]1C[C@@H](Oc2cccc(F)n2)CCN1Cc1cnc(N[11C](C)=O)s1 — logD (shake flask; 1-octanol/sodium phosphate buffer 0.15 M; pH 7.4): 2.96 ± 0.01
Cc1ccccc1-c1cc(N2CCN(Cc3ccccc3)CC2)ccc1N(C)C(=O)C(C)(C)c1cc(C(F)(F)F)cc(C(F)(F)F)c1 — logD (octanol/acetate buffer; pH 5.0): > 5
Cc1cc2c(c(=O)o1)C=C1CCC(C(C)CNCc3ccc(O)cc3)CC1O2 (stereo not drawn) — logD (n-octanol/PBS partition; pH 7.4): 1.48
COc1cc2nc(N3CCCCC3)nc(NC3CCN(C)CC3)c2cc1OC — logD (chromatographic; pH 3): 1
COC(=O)c1cn(C2(C)CC(C)C(=O)C(C(CC3CC(=O)NC(=O)C3)OC(C)=O)C2)nn1 (stereo not drawn) — logD (pH 7.4): -0.069
O=C([O-])CN1CCN(CC(=O)[O-])CC(Cc2ccc(NC(=S)NCCOCCOCCOCCOCCOCCOCCOCCNC(=O)CCCC(=O)NCc3ccc(-c4nncnn4)cc3)cc2)N(CC(=O)[O-])CC1.[64Cu+2] (stereo not drawn) — logD (1-octanol/PBS; pH 7.4): -2.44 ± 0.08
CC1C(=O)OC2C3C1CCC(C)C3(N)CCC2(C)O (stereo not drawn) — logD (pH 7.4): -0.626
Oc1cccc(-c2cccc(O)n2)n1.[Cl-].[Cl-].[Ru+2].c1cnc2c(c1)ccc1cccnc12.c1cnc2c(c1)ccc1cccnc12 — logD (shake flask; octanol/phosphate buffer; pH 8.00): 1.7
Oc1ccccc1-c1nn(-c2ccccc2)[n+](-c2ccccc2)n1.[Br-] — logD (shake-flask; octanol/PBS; pH 7.4): -0.1
[2H]C1([2H])CC[C@@H](C[C@@H](C#N)NC(=O)[C@@H]2[C@@H]3[C@H](CN2C(=O)[C@@H](NC(=O)C(F)F)C(C)(C)C)C3(C)C)C(=O)N1 — logD: ~1.5
C[C@H](Oc1cc(-c2cnn(C3CCN(CC[18F])CC3)c2)cnc1N)c1c(Cl)ccc(F)c1Cl — logD (octanol/PBS; pH 7.4): 1.43
[Br-].c1ccc(-c2nn(-c3nc4ccccc4s3)[n+](-c3ccccc3)n2)cc1 — logD (shake-flask; octanol/PBS; pH 7.4): 0.9
CC(=O)OC(CC1CC(=O)NC(=O)C1)C1CC(C)(N=[N+]=[N-])CC(C)C1=O (stereo not drawn) — logD (pH 7.4): 1.1
COc1cc2c(=O)c(C(=O)NCCNCCO)cn(Cc3ccccc3)c2cc1OCc1ccc(C(C)(C)C)cc1 — logD (shake-flask; 1-octanol/PBS; 2 h, pH 7.4): 2.7
C=C(C)C(=O)Nc1ccc(-c2c(-c3ccc(Oc4nccc(C)n4)cc3)c3c(N)ncnc3n2C)cc1 — logD (chromatographic; pH 7.4): 4.1
O=C(c1ccc(F)cc1)C1CCN(C2Cc3c(O)cccc3CC2O)CC1 (racemic) — logD (pH 7.4): 1.78
[2H]C1([2H])CC[C@@H](C[C@@H](C#N)NC(=O)[C@@H]2[C@@H]3[C@H](CN2C(=O)[C@@H](NC(=O)C(F)(F)F)C(C)(C)C)C3(C)C)C(=O)N1 — logD: 2.09
Oc1ccccc1-n1nc(-c2ccccc2)n[n+]1-c1ccccc1.[Br-] — logD (shake-flask; octanol/PBS; pH 7.4): 1.9
CCC(=O)N1CCN(c2ccc(N(C)C(=O)C(C)(C)c3cc(C(F)(F)F)cc(C(F)(F)F)c3)c(-c3ccccc3C)c2)CC1 — logD (octanol/acetate buffer; pH 5.0): 5.05
Cc1cnc(Nc2cc(C)c(C)c(C)c2)nc1Nc1ccc2oc(=O)[nH]c2c1 — logD (pH 7.4): 4.2
Oc1cccc(-c2cccc(O)n2)n1.[Cl-].[Cl-].[Ru+2].c1cnc2c(c1)c1c(c3cccnc32)OCCO1.c1cnc2c(c1)c1c(c3cccnc32)OCCO1 — logD (shake flask; octanol/acetate buffer; pH 5.25): 1.37
CN(C)c1ccc2c(-c3ccccc3C(=O)OCCOCC[18F])c3ccc(N(C)C)cc3[o+]c2c1 — logD (octanol/PBS; pH 7.4): 1.9 ± 0.01
COc1ccc(N2CCOCC2)c2sc(NC(=O)c3ccnc(CN4CCCC4)c3)nc12 — logD (CAMDIS; pH 7.4): 1.5

For quick reference, copied from above:
CC1C(=O)OC2C3C1CCC(C)C3(N)CCC2(C)O (stereo not drawn) — logD (pH 7.4): -0.626
Oc1cccc(-c2cccc(O)n2)n1.[Cl-].[Cl-].[Ru+2].c1cnc2c(c1)ccc1cccnc12.c1cnc2c(c1)ccc1cccnc12 — logD (shake flask; octanol/phosphate buffer; pH 8.00): 1.7
Oc1ccccc1-c1nn(-c2ccccc2)[n+](-c2ccccc2)n1.[Br-] — logD (shake-flask; octanol/PBS; pH 7.4): -0.1
[2H]C1([2H])CC[C@@H](C[C@@H](C#N)NC(=O)[C@@H]2[C@@H]3[C@H](CN2C(=O)[C@@H](NC(=O)C(F)F)C(C)(C)C)C3(C)C)C(=O)N1 — logD: ~1.5
